# Experimental data pooled from the literature.
# Each line is one published result; not all experiments were run side by side. Several values in a cell are separate wells, animals, samples, runs or records. ± marks the error that the study gave.
# CDK2: Cyclin-dependent kinase 2 (CDK2, Homo sapiens, UniProt P24941)
Structure (SMILES),target or system,assay,test system,conditions,scale,endpoint,result
CC1=CC(=O)CC(C)(C)[C@@]1(O)/C=C/C(C)=C\C(=O)O,Arabidopsis thaliana,,"pyr1/pyl1/pyl2/pyl4 mutant, seeds",1 µM,,number of germinated seeds,29 and 33 and 31
O=c1c(-c2nc3ccccc3s2)cc2c(n1NS(=O)(=O)c1ccc(Cl)cc1)CCCC2,Human alphaherpesvirus 1,"viral replication, plaque reduction",Vero cells,non-toxic concentration,,reduction,0%
Cc1nc2c(NCc3cccc(S(C)(=O)=O)c3)nccn2c1-c1ccc(O)c(F)c1,Rhinovirus C,high-throughput screen,RV-C15a-mGL,10 µM,,viral replication,inhibited
CN[C@H](CC(C)C)C(=O)N[C@H]1C(=O)N[C@@H](CC(N)=O)C(=O)N[C@H]2C(=O)N[C@H]3C(=O)N[C@H](C(=O)N[C@H](C(=O)O)c4cc(O)cc(O)c4-c4cc3ccc4O)[C@H](O)c3ccc(c(Cl)c3)Oc3cc2cc(c3O[C@@H]2O[C@H](CO)[C@@H](O)[C@H](O)[C@H]2O[C@H]2C[C@](C)(N)[C@H](O)[C@H](C)O2)Oc2ccc(cc2Cl)[C@H]1O,Staphylococcus,,"MRSA-38, mouse systemic infection",intravenous,survival,ED50,8.38 mg/kg
C[C@@H]1[C@H](O)[C@@H](C)/C=C/C=C/C=C/C=C/C=C/C=C/C=C/[C@H](O[C@@H]2O[C@H](C)[C@@H](O)[C@H](N)[C@@H]2O)C[C@@H]2O[C@](O)(C[C@@H](O)C[C@@H](O)[C@H](O)CC[C@@H](O)C[C@@H](O)CC(=O)O[C@H]1C)C[C@H](O)[C@H]2C(=O)O,Aspergillus fumigatus,"XTT, preformed biofilm",Af 293,"1 × MIC, 24 h",,biofilm mass reduction,44 to 50%
O=C(N1CCc2ccccc21)n1ccnn1,Arabidopsis thaliana,,"atd14-1 mutant, seedlings","5 µM, continuous red light, added: 1 µM (±)-GR24",,hypocotyl length,1.72 mm and 4.31 mm and 2.33 mm and 2.29 mm and 3.01 mm and 2.41 mm
CCOC(=O)c1c(C)nc(NCCCCNc2ccnc3cc(Cl)ccc23)nc1-c1ccccc1,feline herpesvirus,viral replication,CRFK,,,EC50,> 4000 nM
COC(=O)[C@@H](CCSC)NCc1cc2ccccc2nc1SC,Pseudomonas aeruginosa,,,"128 µg/mL, added: pentamidine 50 µM",reference: control,growth,78%
CC(C)n1ncc2c(C(=O)NCC3(C)CNC3)cc(C3CC3)nc21,Enterovirus D68,cytopathic effect,"RD, US/IL/14-18952",5 nM,,cell protection,-0.405% and -1.35% and -0.135%
Nc1nc2c(ncn2COCCO)c(=O)[nH]1,herpes simplex virus 2,viral cytopathic effect,"Vero, G",120 h,,EC50,190 nM
COC(=O)[C@H](Cc1ccc(O)cc1)NCc1cc2ccccc2nc1SC,Pseudomonas aeruginosa,,,"16 µg/mL, added: pentamidine 50 µM",reference: control,growth,97.3%
CC1(C)S[C@@H]2[C@H](NC(=O)[C@H](N)c3ccccc3)C(=O)N2[C@H]1C(=O)O,Enterococcus faecium,agar dilution,vancomycin-intermediate,25 isolates,,MIC50,128 µg/mL
N=C(N)c1cccc(OCc2ccc(COc3cccc(C(=N)N)c3)cc2)c1,Escherichia coli,checkerboard,mcr-2 polymyxin-resistant,"concentration not given, 20 h, added: rifampicin",,MIC of compound in combination,25 µg/mL
COc1cc(NC(=O)Cn2ccc3cc(F)c(-c4cnn(C)c4)cc32)cc(OC)c1OC,Plasmodium falciparum,luminescence,"red blood cells, 3D7 Hyp1-Nluc","10 × EC50, 8 h",reference: DMSO,fold lysis,5 fold
Cc1nc2[nH]c(=O)n(O)c(=O)c2s1,Echinochloa crus-galli,glasshouse pot,,"1500 g/ha, 21 days, pre-emergence",,inhibition,9.5%
O=c1cc2ccocc-2o1,Arabidopsis thaliana,,"wild type, seedlings",0.3 µM,,hypocotyl length,13.2 mm
CN[C@H](CC(C)C)C(=O)N[C@H]1C(=O)N[C@@H](CC(N)=O)C(=O)N[C@H]2C(=O)N[C@H]3C(=O)N[C@H](C(=O)N[C@H](C(=O)O)c4cc(O)cc(O)c4-c4cc3ccc4O)[C@H](O)c3ccc(c(Cl)c3)Oc3cc2cc(c3O[C@@H]2O[C@H](CO)[C@@H](O)[C@H](O)[C@H]2O[C@H]2C[C@](C)(N)[C@H](O)[C@H](C)O2)Oc2ccc(cc2Cl)[C@H]1O,Enterococcus faecium,,Enterococcus faecalis,40 strains,,MIC90,1 µg/mL
Cc1nc2ncnn2c(O)c1NS(=O)(=O)c1ccc(Br)cc1,CDK2,binding,,,,Kd,> 100 µM
N=C(N)c1ccc(OCc2ccc(Br)cc2COc2ccc(C(=N)N)cc2)cc1,Escherichia coli,checkerboard,ATCC 25922,"unit not given, added: rifampicin",lower = stronger synergy,FICI,≤ 0.031
Cc1cc(OC(C)C)ccc1C(=O)C(C)(C)NC(=O)c1sccc1C,Botrytis cinerea,germ tube elongation,B05.10,0.003 µg/mL,,inhibition,14.9 ± 16.2%
C=C[C@]1(C)C[C@@H](OC(=O)CSCCN(CC)CC)[C@]2(C)[C@H](C)CC[C@]3(CCC(=O)[C@H]32)[C@@H](C)[C@@H]1O,Mycoplasma gallisepticum,,"infected chickens, lung","oral, 40 mg/kg",reference: 0 h,reduction in lung mycoplasma load,2.71 log10 CFU/mL and 2.9 log10 CFU/mL and 2.82 log10 CFU/mL and 3.11 log10 CFU/mL and 3.02 log10 CFU/mL and 2.5 log10 CFU/mL and 2.96 log10 CFU/mL and 2.44 log10 CFU/mL
CC(=O)NC[C@H]1CN(c2ccc(N3CCOCC3)c(F)c2)C(=O)O1,Streptococcus pneumoniae,,,,,MIC50,0.5 µg/mL
Cc1c(CN(C)C(=O)/C=C/c2cnc3c(c2)CC(NC(=O)OC(C)(C)C)C(=O)N3)oc2ccccc12 (stereo not drawn),Acinetobacter baumannii,broth microdilution,AR-0033,,,MIC,> 32 µg/mL
O=c1[nH]c2ncsc2c(=O)n1O,Echinochloa crus-galli,glasshouse pot,,"1500 g/ha, 21 days, pre-emergence",,inhibition,1.5%
Nc1nc(-c2ccccc2)nc2[nH]nc(Nc3ccc(C(F)(F)F)cc3)c12,coxsackievirus B3,,"31-1-93, NMRI mice, CVB3 chronic myocarditis","oral, 100 mg/kg twice daily, day 9, dosed days 0 to 6, score scale 0 to 7",direction not given,clinical score,0.2
CCOC(=O)c1c(C)nc(NCCNc2ccnc3cc(Cl)ccc23)nc1-c1ccccc1,feline herpesvirus,viral replication,CRFK,,,EC50,> 4000 nM
CC1=C[C@H](O/C=C2/C(=O)O[C@@H]3c4ccccc4C[C@H]23)OC1=O (racemic),Arabidopsis thaliana,,"max2-1 mutant, seedlings",1 µM,,hypocotyl length,9.53 mm
Cc1cc(C)c2sc(NC(=O)c3cc4ccccc4o3)nc2n1,Dengue virus 2,"cytopathic effect, neutral red uptake","Huh-7, New Guinea C",,,EC50,> 32000 nM
CC(=O)Oc1ccccc1C(=O)Nc1ncc([N+](=O)[O-])s1,Cryptosporidium parvum,,HCT-8,"6 x EC90, 0 h",reference: DMSO control,parasite number,93.3% and 96.8% and 109% and 101%
CCN1CCC(CCNCc2cc3cc(OC)c(OC)c(OC)c3nc2SCc2ccccc2)CC1,Acinetobacter baumannii,"NADH-driven proton pumping, ACMA quenching",inverted membrane vesicles,32 µg/mL,,inhibition,72%
COC(=O)[C@@H](NCc1cc2ccccc2nc1OCc1ccccc1)C(C)C,Pseudomonas aeruginosa,,,"16 µg/mL, without pentamidine",reference: control,growth,93.5%
C[C@@H](O)[C@H]1C(=O)N2C(C(=O)O)=C(SCCN=CN)C[C@H]12,Acinetobacter baumannii,,"0403, female ICR mice, peritonitis, lung",dose not given,,bacterial load,2.52 log CFU and 3.22 log CFU and 2.82 log CFU and 3 log CFU and 3.12 log CFU
COC[C@H]1O[C@@H]2O[C@H]3[C@H](OC)[C@@H](OC)[C@@H](O[C@H]4[C@H](OC)[C@@H](OC)[C@@H](O[C@H]5[C@H](OC)[C@@H](OC)[C@@H](O[C@H]6[C@H](OC)[C@@H](OC)[C@@H](O[C@H]7[C@H](OC)[C@@H](OC)[C@@H](O[C@H]8[C@H](OC)[C@@H](OC)[C@@H](O[C@H]1[C@H](OC)[C@H]2OC)O[C@@H]8COC)O[C@@H]7COC)O[C@@H]6COC)O[C@@H]5COC)O[C@@H]4COC)O[C@@H]3COC,Escherichia coli,"LuxR reporter, agonist",DH5α sensor strain,4 µM,,bioluminescence,838 ± 25 RLU
COc1ccc(NC(=O)CN2CCOCC2)c([N+](=O)[O-])c1,CDK2,binding,,,,Kd,> 100 µM
Cc1c2c(nn1C)CSCc1cc(n(C)n1)CSc1cc(c3ccccc3c1)OCCCc1c(C(=O)O)n(C)c3c-2c(Cl)ccc13,Staphylococcus aureus,broth microdilution,methicillin-susceptible clinical isolates,,,MIC90,12.5 µM
Nc1nc(O)c2ncn(COC(CO)CO)c2n1,herpes simplex virus 2,viral replication,"HEL cells, G",,,EC50,240 nM
CN1CCN(CCNCc2cc3cc(Br)ccc3nc2SCc2ccccc2)CC1,Acinetobacter baumannii,"NADH-driven proton pumping, ACMA quenching",inverted membrane vesicles,2 µg/mL,,inhibition,41%
C=C[C@]1(C)C[C@@H](OC(=O)CS[C@@H]2C[C@H]3CC[C@@H](C2)N3C)[C@]2(C)[C@H](C)CC[C@]3(CCC(=O)[C@H]32)[C@@H](C)[C@@H]1O,Enterococcus faecium,agar dilution,vancomycin-intermediate,25 isolates,,MIC90,> 128 µg/mL
Cn1cc(-c2ccc(-c3cncc(Cl)c3N3CCC4(CCNC4=O)CC3)cc2)cn1,COLO 205,"microarray, refers to: E2F1",,"concentration not given, 6 h",reference: untreated cells,fold change in expression,-1.85

# For quick reference, copied from above:
Structure (SMILES),target or system,assay,test system,conditions,scale,endpoint,result
O=c1cc2ccocc-2o1,Arabidopsis thaliana,,"wild type, seedlings",0.3 µM,,hypocotyl length,13.2 mm
CN[C@H](CC(C)C)C(=O)N[C@H]1C(=O)N[C@@H](CC(N)=O)C(=O)N[C@H]2C(=O)N[C@H]3C(=O)N[C@H](C(=O)N[C@H](C(=O)O)c4cc(O)cc(O)c4-c4cc3ccc4O)[C@H](O)c3ccc(c(Cl)c3)Oc3cc2cc(c3O[C@@H]2O[C@H](CO)[C@@H](O)[C@H](O)[C@H]2O[C@H]2C[C@](C)(N)[C@H](O)[C@H](C)O2)Oc2ccc(cc2Cl)[C@H]1O,Enterococcus faecium,,Enterococcus faecalis,40 strains,,MIC90,1 µg/mL
Cc1nc2ncnn2c(O)c1NS(=O)(=O)c1ccc(Br)cc1,CDK2,binding,,,,Kd,> 100 µM
N=C(N)c1ccc(OCc2ccc(Br)cc2COc2ccc(C(=N)N)cc2)cc1,Escherichia coli,checkerboard,ATCC 25922,"unit not given, added: rifampicin",lower = stronger synergy,FICI,≤ 0.031
Cc1cc(OC(C)C)ccc1C(=O)C(C)(C)NC(=O)c1sccc1C,Botrytis cinerea,germ tube elongation,B05.10,0.003 µg/mL,,inhibition,14.9 ± 16.2%
C=C[C@]1(C)C[C@@H](OC(=O)CSCCN(CC)CC)[C@]2(C)[C@H](C)CC[C@]3(CCC(=O)[C@H]32)[C@@H](C)[C@@H]1O,Mycoplasma gallisepticum,,"infected chickens, lung","oral, 40 mg/kg",reference: 0 h,reduction in lung mycoplasma load,2.71 log10 CFU/mL and 2.9 log10 CFU/mL and 2.82 log10 CFU/mL and 3.11 log10 CFU/mL and 3.02 log10 CFU/mL and 2.5 log10 CFU/mL and 2.96 log10 CFU/mL and 2.44 log10 CFU/mL
